Measured values from different studies.
A part holds a random share of what one study measured. Positions count from the first letter of the parent shown.
Chain of UniProt Q9NR09 (whole entry, looked up): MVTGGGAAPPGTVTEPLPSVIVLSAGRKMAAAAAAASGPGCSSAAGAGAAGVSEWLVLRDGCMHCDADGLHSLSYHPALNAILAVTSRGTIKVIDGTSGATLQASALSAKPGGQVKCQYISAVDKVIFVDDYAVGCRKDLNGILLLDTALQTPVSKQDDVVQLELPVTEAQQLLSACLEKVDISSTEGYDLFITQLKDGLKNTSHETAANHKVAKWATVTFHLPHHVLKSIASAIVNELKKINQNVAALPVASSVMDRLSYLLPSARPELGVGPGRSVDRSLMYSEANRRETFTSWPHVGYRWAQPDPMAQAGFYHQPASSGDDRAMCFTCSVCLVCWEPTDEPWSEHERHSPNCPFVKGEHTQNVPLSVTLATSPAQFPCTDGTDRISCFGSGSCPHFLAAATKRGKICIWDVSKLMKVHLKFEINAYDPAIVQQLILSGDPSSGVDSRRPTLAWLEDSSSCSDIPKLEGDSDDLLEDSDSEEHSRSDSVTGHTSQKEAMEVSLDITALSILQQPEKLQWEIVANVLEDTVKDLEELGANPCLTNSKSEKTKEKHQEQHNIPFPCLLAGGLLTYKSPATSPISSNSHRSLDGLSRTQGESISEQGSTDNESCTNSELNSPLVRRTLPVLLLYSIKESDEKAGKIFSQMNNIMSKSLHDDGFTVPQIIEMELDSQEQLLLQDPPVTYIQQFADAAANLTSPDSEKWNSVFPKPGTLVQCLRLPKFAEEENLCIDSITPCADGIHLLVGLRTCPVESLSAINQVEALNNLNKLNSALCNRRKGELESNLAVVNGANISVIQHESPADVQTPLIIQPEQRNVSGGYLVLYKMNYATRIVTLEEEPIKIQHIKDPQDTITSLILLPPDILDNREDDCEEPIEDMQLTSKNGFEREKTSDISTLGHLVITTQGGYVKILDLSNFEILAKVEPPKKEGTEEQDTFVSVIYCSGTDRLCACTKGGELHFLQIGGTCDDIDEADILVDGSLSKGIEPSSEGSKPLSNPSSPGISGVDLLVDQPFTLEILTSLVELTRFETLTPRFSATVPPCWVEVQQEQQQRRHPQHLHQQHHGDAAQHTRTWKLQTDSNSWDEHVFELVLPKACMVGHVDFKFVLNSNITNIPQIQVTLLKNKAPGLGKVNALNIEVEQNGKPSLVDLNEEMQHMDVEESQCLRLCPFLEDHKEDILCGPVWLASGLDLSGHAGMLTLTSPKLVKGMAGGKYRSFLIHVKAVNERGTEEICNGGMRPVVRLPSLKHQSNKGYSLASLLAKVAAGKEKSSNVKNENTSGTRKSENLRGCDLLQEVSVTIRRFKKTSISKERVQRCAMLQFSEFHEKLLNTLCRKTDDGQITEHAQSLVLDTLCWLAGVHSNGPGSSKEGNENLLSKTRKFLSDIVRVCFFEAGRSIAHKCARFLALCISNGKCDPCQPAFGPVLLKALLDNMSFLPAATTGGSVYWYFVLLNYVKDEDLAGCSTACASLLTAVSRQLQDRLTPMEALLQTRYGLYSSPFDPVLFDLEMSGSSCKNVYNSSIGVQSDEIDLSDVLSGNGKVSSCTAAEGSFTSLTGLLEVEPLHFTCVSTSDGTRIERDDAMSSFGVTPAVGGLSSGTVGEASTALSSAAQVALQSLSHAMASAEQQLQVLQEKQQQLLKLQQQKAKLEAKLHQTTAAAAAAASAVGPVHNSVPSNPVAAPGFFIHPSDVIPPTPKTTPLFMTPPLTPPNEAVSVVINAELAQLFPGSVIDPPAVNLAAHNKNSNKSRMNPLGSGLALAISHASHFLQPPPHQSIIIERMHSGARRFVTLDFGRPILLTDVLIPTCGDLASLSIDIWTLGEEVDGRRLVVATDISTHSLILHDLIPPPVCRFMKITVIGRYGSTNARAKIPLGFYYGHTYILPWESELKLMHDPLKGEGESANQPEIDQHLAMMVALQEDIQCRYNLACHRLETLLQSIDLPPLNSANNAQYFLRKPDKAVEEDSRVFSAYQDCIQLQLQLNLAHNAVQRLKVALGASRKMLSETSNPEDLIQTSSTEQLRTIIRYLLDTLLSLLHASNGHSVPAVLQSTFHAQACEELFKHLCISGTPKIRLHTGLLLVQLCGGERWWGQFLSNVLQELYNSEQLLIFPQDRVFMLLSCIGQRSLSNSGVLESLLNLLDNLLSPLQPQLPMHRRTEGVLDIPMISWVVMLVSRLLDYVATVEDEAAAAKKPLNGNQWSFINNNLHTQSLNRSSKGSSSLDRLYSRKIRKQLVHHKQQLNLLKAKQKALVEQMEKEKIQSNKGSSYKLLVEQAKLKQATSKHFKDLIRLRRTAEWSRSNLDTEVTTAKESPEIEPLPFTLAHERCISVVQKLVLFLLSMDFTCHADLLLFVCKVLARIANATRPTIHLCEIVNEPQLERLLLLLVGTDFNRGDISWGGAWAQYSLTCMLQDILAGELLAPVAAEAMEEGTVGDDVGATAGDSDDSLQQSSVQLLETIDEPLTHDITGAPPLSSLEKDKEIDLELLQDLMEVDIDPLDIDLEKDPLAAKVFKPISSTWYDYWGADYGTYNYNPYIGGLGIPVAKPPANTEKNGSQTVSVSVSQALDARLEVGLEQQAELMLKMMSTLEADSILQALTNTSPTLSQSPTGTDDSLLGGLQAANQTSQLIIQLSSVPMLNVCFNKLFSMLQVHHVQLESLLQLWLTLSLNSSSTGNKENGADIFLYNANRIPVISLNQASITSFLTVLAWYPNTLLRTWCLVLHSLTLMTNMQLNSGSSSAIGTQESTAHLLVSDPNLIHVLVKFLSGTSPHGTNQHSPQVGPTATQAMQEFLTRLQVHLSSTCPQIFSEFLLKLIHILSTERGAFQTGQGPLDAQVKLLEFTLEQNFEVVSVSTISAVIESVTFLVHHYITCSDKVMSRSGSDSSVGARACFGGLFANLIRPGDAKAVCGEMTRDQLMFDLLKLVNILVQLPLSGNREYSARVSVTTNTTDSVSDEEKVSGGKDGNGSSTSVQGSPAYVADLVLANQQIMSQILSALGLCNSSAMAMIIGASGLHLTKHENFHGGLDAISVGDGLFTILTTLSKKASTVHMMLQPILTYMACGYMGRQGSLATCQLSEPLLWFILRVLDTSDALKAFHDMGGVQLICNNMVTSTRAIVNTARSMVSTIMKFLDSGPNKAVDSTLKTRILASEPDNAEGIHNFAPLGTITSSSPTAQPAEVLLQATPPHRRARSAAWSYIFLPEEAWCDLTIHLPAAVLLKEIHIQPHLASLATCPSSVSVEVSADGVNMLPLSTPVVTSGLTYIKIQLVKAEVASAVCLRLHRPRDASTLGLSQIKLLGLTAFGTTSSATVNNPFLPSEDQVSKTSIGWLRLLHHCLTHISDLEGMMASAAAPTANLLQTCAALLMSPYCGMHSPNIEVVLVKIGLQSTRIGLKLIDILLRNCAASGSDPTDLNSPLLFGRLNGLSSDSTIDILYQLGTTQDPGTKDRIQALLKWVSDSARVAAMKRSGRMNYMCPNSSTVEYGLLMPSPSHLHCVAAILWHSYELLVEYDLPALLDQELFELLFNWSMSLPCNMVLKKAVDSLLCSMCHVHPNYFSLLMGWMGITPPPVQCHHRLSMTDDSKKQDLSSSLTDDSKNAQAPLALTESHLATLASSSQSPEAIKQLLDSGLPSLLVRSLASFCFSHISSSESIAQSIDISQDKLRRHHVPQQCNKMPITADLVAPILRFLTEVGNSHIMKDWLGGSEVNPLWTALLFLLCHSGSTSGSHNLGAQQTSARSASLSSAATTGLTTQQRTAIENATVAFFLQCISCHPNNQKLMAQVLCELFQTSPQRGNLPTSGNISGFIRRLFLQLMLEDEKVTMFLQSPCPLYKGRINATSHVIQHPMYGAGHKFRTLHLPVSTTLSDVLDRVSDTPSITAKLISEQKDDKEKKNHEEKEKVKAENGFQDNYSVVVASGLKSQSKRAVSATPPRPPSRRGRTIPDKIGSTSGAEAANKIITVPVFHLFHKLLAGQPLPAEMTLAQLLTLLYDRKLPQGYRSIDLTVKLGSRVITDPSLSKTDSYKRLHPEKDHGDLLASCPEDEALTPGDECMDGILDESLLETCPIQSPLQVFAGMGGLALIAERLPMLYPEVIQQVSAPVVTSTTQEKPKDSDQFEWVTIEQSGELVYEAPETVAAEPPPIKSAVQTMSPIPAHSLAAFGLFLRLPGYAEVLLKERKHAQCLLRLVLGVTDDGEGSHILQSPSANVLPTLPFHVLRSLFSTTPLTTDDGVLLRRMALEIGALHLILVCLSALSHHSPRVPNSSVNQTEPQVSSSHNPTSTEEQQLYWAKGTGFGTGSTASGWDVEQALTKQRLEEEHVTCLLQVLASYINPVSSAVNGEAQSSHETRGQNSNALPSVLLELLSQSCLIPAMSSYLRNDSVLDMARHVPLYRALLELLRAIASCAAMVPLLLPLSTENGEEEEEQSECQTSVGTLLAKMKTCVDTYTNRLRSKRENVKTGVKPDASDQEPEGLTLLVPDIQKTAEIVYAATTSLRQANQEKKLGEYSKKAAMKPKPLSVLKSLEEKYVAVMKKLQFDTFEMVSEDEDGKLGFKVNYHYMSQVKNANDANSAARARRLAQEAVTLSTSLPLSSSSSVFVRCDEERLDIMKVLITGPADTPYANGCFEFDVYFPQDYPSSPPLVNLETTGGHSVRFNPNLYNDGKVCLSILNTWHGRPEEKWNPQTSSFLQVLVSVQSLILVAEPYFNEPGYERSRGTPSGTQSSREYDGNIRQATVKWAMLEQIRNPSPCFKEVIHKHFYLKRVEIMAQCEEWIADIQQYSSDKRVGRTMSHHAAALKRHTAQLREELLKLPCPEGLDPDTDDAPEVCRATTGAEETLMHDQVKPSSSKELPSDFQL
Chain of UniProt P63146 (whole entry, looked up): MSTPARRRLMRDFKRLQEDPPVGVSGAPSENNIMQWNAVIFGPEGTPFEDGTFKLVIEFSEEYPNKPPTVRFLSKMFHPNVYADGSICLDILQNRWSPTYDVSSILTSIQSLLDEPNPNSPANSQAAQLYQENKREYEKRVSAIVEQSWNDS
Chain of UniProt P62253 (whole entry, looked up): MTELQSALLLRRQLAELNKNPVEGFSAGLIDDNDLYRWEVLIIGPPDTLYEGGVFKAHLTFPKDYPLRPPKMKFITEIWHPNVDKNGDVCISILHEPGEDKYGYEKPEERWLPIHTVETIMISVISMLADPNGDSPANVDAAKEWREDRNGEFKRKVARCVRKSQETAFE

Set 1 — target: CCNE1, cyclin fold, Cln2 fusion (human); technique: yeast growth competition, sequencing; matrix: yeast; notes: strong parent motif; baseline: not given; direction: higher = stronger binding; measurement: normalised enrichment score
Parent: RBL2 docking peptide (human); STTRRRLFVENDS; partner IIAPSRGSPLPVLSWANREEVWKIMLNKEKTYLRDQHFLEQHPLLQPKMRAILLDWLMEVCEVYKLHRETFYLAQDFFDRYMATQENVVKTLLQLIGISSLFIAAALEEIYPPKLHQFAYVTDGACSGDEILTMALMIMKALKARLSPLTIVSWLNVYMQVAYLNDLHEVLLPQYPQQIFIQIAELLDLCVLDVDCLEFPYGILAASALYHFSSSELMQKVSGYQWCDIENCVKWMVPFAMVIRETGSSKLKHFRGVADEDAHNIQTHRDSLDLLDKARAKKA
Variant = STTRMRLFVENDS [R5M]; value = 0.496
Variant = STTRRRLFWENDS [V9W]; value = 5.56
Variant = STTRRRLFVETDS [N11T]; value = 5.49
Variant = STTRRGLFVENDS [R6G]; value = -0.125
Variant = STFRRRLFVENDS [T3F]; value = 6.6
Variant = SSTRRRLFVENDS [T2S]; value = 5.56
Variant = STTRRRLFVENLS [D12L]; value = 3.58
Variant = STTRRRLFVDNDS [E10D]; value = 7.25
Variant = SETRRRLFVENDS [T2E]; value = 5.32
Variant = STTRRRLFVHNDS [E10H]; value = 2.87
Variant = STTERRLFVENDS [R4E]; value = 0.315
Variant = STTRRRYFVENDS [L7Y]; value = -0.342
Variant = STTRRRLFVENDM [S13M]; value = 5.43
Variant = STTRRPLFVENDS [R6P]; value = -0.174
Variant = SDTRRRLFVENDS [T2D]; value = 4.35
Variant = STTRRRLFVENNS [D12N]; value = 4.14
Variant = STHRRRLFVENDS [T3H]; value = 5.7
Variant = STTRRRLFVQNDS [E10Q]; value = 3.39
Variant = STTRRRLFVEQDS [N11Q]; value = 5.73
Variant = STTARRLFVENDS [R4A]; value = 4.28
Variant = STTRRRLFVINDS [E10I]; value = 1.59
Variant = STTRRRLFVVNDS [E10V]; value = 3.83
Variant = STTRRREFVENDS [L7E]; value = 0.459
Variant = STTMRRLFVENDS [R4M]; value = 2.06
Variant = FTTRRRLFVENDS [S1F]; value = 5.76

Set 2 — technique: DHFR PCA, deep sequencing; matrix: yeast; with: (+)-ABA 710 µM; baseline: wild-type fitted maximum; direction: higher = stronger binding; measurement: relative binding score
Target: ABI1, truncated, D143A, DHFR fusion (Arabidopsis thaliana)
Notes: methotrexate growth selection, single substitutions
Parent: PYL1, truncated, DHFR fusion (Arabidopsis thaliana); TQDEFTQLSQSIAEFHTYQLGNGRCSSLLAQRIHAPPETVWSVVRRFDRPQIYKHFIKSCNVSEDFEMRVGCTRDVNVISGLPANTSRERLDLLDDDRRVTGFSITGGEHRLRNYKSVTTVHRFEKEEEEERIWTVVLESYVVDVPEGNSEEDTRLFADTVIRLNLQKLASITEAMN; partner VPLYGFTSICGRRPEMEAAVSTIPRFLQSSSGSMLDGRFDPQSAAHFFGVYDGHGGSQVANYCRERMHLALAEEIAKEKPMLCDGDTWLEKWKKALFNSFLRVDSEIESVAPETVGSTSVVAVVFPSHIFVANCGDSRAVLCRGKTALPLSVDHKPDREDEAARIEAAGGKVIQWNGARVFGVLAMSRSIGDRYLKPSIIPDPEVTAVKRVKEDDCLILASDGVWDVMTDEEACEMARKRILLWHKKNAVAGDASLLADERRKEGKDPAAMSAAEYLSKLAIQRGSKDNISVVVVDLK
Variant = R74C; value = -14.7%
Variant = V137D; value = -3.44%
Variant = V70E; value = 98.7%
Variant = P37V; value = 95.9%
Variant = A13F; value = 94.2%
Variant = W134R; value = 102%
Variant = P37W; value = 78.3%
Variant = V100F; value = 86.9%
Variant = Q51R; value = 73.2%
Variant = H110Q; value = 64.7%
Variant = G108I; value = 16.6%
Variant = T119H; value = 28.1%
Variant = K116R; value = 104%
Variant = N165Q; value = 45.8%
Variant = G107N; value = 95.7%
Variant = K54E; value = -2.59%
Variant = T86S; value = 102%
Variant = K168R; value = 99.1%
Variant = F157C; value = 36.1%
Variant = V43Y; value = 97.4%
Variant = R69K; value = 96.9%
Variant = P37E; value = 86%
Variant = G23V; value = 89.1%
Variant = T39C; value = 102%
Variant = T154M; value = 87.2%

Set 3 — Substance: RNF167 RING domain (UniProt Q9H6Y7); technique: yeast two-hybrid; matrix: yeast; notes: mostly zero background; baseline: not given; direction: higher = stronger interaction; measurement: lacZ reporter activity
target = UBE2J2 UBC core domain (UniProt Q8N2K1); value = 0
target = UBE2R2 UBC core domain (UniProt Q712K3); value = 0
target = BIRC6 UBC core domain (UniProt Q9NR09); value = 0
target = UBE2Z UBC core domain (UniProt Q9H832); value = 0
target = UBE2O UBC core domain (UniProt Q9C0C9); value = 0
target = UBE2Q1 UBC core domain (UniProt Q7Z7E8); value = 0
target = UBE2E3 UBC core domain (UniProt Q969T4); value = 10900
target = UBE2J1 UBC core domain (UniProt Q9Y385); value = 0
target = UBE2T UBC core domain (UniProt Q9NPD8); value = 0
target = UBE2C UBC core domain (UniProt O00762); value = 0
target = UBE2S UBC core domain (UniProt Q16763); value = 0
target = UBE2G1 UBC core domain (UniProt P62253); value = 0
target = UBE2M UBC core domain (UniProt P61081); value = 0
target = UBE2D1 UBC core domain (UniProt P51668); value = 13600
target = UBE2I UBC core domain (UniProt P63279); value = 0
target = UBE2B UBC core domain (UniProt P63146); value = 0

Set 4 — target: NFE2L2, bZIP domain (human); technique: DHFR protein complementation; matrix: yeast; baseline: wild-type JUN-FOS pair; direction: higher = stronger binding; measurement: binding fitness
Notes: single substitutions, most at no-binding floor
Parent: JUN, bZIP domain (human); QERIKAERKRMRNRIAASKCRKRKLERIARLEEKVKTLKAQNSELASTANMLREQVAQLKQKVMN; partner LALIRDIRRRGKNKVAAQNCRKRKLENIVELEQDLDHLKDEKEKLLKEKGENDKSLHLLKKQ
Variant = R30N; value = -1.25 natural log
Variant = Q55A; value = -1.44 natural log
Variant = L38V; value = -1.36 natural log
Variant = I28S; value = -1.47 natural log
Variant = Q41I; value = -1.2 natural log
Variant = R30Q; value = -1.38 natural log
Variant = S47W; value = -1.46 natural log
Variant = L52V; value = -1.25 natural log
Variant = T37D; value = -1.54 natural log
Variant = V35C; value = -1.55 natural log
Variant = L31Q; value = -1.48 natural log
Variant = K34F; value = -1.17 natural log
Variant = E32G; value = -1.44 natural log
Variant = K39R; value = -1.21 natural log
Variant = A49K; value = -1.52 natural log
Variant = S47G; value = -1.42 natural log
Variant = L52W; value = -1.6 natural log

Set 5 — technique: RNA Bind-n-Seq; molecule type: RNA; matrix: in vitro; tested at: 200 nM; notes: whole 134-nt RNA, ends assumed; with: 150 mM LiCl; baseline: input library; direction: higher = stronger binding; measurement: log2 enrichment; library: 7-deaza-guanosine replaces G
Target: Fragile X messenger ribonucleoprotein 1, C-terminal low-complexity region (Fmr1, Mus musculus, UniProt P35922)
All sequences stand within: GGGAGUUCUACAGUCCGACGAUC … UGGAAUUCUCGGGUGUCAAGG
Strand = CUCAAGUCCUGUGCUACACAUCGUAUGUACCGAAUCGGUUUUUUUGGAGGAGGAAAGUAUUAUGUUACGCCGUUCGGAUCUGCACUUCCA; value = -0.16
Strand = CAAGUCCUGUGCUACACAUCGUAUGUACCGAAUCGGAAAAAGGAAAAAAAGGAGGAAAGUAUUAUGUUACGCCGUUCGGAUCUGCACUUC; value = -0.882
Strand = CUGUGCUACACAUCGUAUGUACCGAAUCGGGGUUUUUUUGGGGUUUUUUUGGGUUUUUUUGGAAAGUAUUAUGUUACGCCGUUCGGAUCU; value = 1.38
Strand = ACCAUCCAGGUGGGCAUCUUUGGGAAGUGGGGCAAGGGGGGGAUAGGGAGGGGGGUAACACUUUGGGAACAGGUGGUCCCAGGUCGUUUC; value = 1.41
Strand = CCUGUGCUACACAUCGUAUGUACCGAAUCGGAAAAAAGGGGAAAAAAGGGAAAAAAGGGGAAAGUAUUAUGUUACGCCGUUCGGAUCUGC; value = -0.228
Strand = UAACUUUAGAGGAGGAUCUGAUGUAUAUGGCAGUGGACGUGGAUUUGGGGAUGGCUAUAAUGGGUAUGGAGGAGGACCUGGAGGUGGCAA; value = 0.432
Strand = CUCAAGUCCUGUGCUACACAUCGUAUGUACCGAAUCGGGGAGGAGGGGAGGGGAAAGUAUUAUGUUACGCCGUUCGGAUCUGCACUUCCA; value = -0.61
Strand = GGGUCUGUUGCAAAUAAAUUCUAUGUUCACAAUGAUAUCUUCAGAUACCAAGAUGAGGUCUUUGGUGGGUUUGUCACUGAGCCUCAGGAG; value = -0.807
Strand = UAACUUUAGAGGAGGAUCUGAUGGAUAGGGCAGUGGACGUGGAUUUGGGGAUGGCUAUAAUGGGUAUGGAGGAGGACCUGGAGGUGGCAA; value = 0.0452
Strand = UGGCCCUGGUGGCAUGCGGGGAGGAAGAGGUGGCCUCAUGGAUCGUAGUGGUCCCGGUGGAAUGUUCAGAGGUGGCCGUGGUGGAGACAG; value = 0.0959
Strand = ACCAUGCAGGUGGGCAUCUUUGGGAAGUGGGGCAAGGGGGGGAUAGGGAGGGGGGCAACACUUUGGGAACAGGUGGUCCCAGGUCGUUUC; value = 1.22

Excerpt of the above (set 1):
Variant = STTRRRLFVETDS [N11T]; value = 5.49
Variant = STTRRGLFVENDS [R6G]; value = -0.125
Variant = STFRRRLFVENDS [T3F]; value = 6.6
Variant = SSTRRRLFVENDS [T2S]; value = 5.56
Variant = STTRRRLFVENLS [D12L]; value = 3.58
Variant = STTRRRLFVDNDS [E10D]; value = 7.25
Variant = SETRRRLFVENDS [T2E]; value = 5.32
Variant = STTRRRLFVHNDS [E10H]; value = 2.87
